Assay results of several laboratories.
A part holds a random share of what one study measured.

Sample 1 — technique: RNA Bind-n-Seq; form: RNA; medium: in vitro; concentration: 200 nM; notes: whole 134-nt RNA, ends assumed; together with: 150 mM KCl; relative to: input library; direction: higher = stronger binding
Target: Ras GTPase-activating protein-binding protein 1, full length (G3BP1, Homo sapiens, UniProt Q13283)
Chain of UniProt Q13283 (whole entry, looked up): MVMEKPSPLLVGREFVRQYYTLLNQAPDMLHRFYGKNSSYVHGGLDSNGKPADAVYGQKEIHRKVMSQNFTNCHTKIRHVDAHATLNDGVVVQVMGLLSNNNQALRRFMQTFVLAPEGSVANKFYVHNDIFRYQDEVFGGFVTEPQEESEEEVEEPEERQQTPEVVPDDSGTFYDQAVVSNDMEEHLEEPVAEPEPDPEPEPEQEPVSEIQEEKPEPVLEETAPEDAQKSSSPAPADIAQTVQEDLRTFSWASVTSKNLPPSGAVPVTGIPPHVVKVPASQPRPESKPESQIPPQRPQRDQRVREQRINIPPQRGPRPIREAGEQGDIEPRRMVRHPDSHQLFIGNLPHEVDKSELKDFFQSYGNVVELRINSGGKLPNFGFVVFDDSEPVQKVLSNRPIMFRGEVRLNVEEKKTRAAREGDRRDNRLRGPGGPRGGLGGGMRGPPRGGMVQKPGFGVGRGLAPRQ
All sequences stand within: GGGAGUUCUACAGUCCGACGAUC … UGGAAUUCUCGGGUGUCAAGG
With `AAGUCCUGUGCUACACAUCGUAUGUACCGAAUCAAACCCCCAAACCCAAACCCAAAAAAGUAUUAUGUUACGCCGUUCGGAUCUGCACUU` the log2 enrichment was -0.603.
`AGUCCUGUGCUACACAUCGUAUGUACCGAAUCGGGAAAAAGGGAAAAAAAGGGUGGGAAAGUAUUAUGUUACGCCGUUCGGAUCUGCACU` gave a log2 enrichment of 0.0725.
With `AAGUCCUGUGCUACACAUCGUAUGUACCGAAUCGGGAAAAAGGGUUUGGGAAAGGGAAAGUAUUAUGUUACGCCGUUCGGAUCUGCACUU` the log2 enrichment was -0.0187.
For `UGGCCCUGGUGGCAUGCGGGGAGGAAGAGGUGGCCUCAUGGAUCGUGGUGGUCCCGGUGGAAAGUUCAGAGGUGGCCGUGGUGGAGACAG`, the log2 enrichment was 0.204.
`UAACUUUAGAGGAGGAUCUGAUGGAUAUGGCAGUGGACGUGGAUUUGAGGAUGGCUAUAAUGGGUAUGGAGGAGGACCUGGAGGUGGCAA` has a log2 enrichment of 0.327.
`CCUCAAGUCCUGUGCUACACAUCGUAUGUACCGAAUCGGGGUGGUGGGUGGGGAAAGUAUUAUGUUACGCCGUUCGGAUCUGCACUUCCA` gave a log2 enrichment of 1.02.
For `ACCAUGCAGGUGGGCAUCUUUGGGAAGUGGGGCAAGGGGGGGACAGGGAGGGGGGUAACACUUUGGGAACAGGUGGUCCCAGGUCGUUUC`, the log2 enrichment was 1.28.
The log2 enrichment of `UUGUGGUAUUUUAUUUACUUAUUUUUUUAAAUCUUCCAUUACAGCCAUGCCUUUCUUGGACAUCCAGAAAAGGUUCGGCCUUAACAUAGA` is reported as -0.459.
`UCCUGUGCUACACAUCGUAUGUACCGAAUCGGGUUUUUUGGGUUUUUUGGUUUUUUGGGGAAAGUAUUAUGUUACGCCGUUCGGAUCUGC` has a log2 enrichment of -0.547.
With `UGGCCCAGGUGGCAUGCGGGGAGGAAGAGGUGGCCUCAUGGAUCGUGGUGGUCCCGGUGGAAUGUUCAGAGGUGGCCGUGGUGGAGACAG` the log2 enrichment was 0.393.
`AUCAUUUCAUUUUUAUAAUUAUACAUUAGACAUUGGCACUUGUGUAAAACUGUCCCUGCAGAUUGAGCAGGAAGUAAAAACAAAUGGAAA` gave a log2 enrichment of -0.00105.
With `AGUCCUGUGCUACACAUCGUAUGUACCGAAUCAAAUUUUUAAAUUUAAACCCCCAAAAAAGUAUUAUGUUACGCCGUUCGGAUCUGCACU` the log2 enrichment was -0.529.
The log2 enrichment of `UCAAGUCCUGUGCUACACAUCGUAUGUACCGAAUCGGGCCGGGCCGGGCCGGGGAAAGUAUUAUGUUACGCCGUUCGGAUCUGCACUUCC` is reported as 0.192.
For `UAACUUUAGAGGAGGAUCUGAUGGAUAUGGCAGUGGACGUGGAUUUGGGGAUGGCGAUAAUGGGUAUGGAGGAGGACCUGGAGGUGGCAA`, the log2 enrichment was 0.321.

Sample 2 — technique: protein binding microarray; form: double-stranded DNA, one strand shown; medium: in vitro; concentration: not given; relative to: not given; direction: higher = stronger binding
Target: Histone acetyltransferase KAT6A, winged helix 2, GST fusion (KAT6A, Homo sapiens, UniProt Q92794, residues 85-181)
Notes: 8-mer, flanks averaged, mean of 2 arrays, mostly near background
Residues (chain): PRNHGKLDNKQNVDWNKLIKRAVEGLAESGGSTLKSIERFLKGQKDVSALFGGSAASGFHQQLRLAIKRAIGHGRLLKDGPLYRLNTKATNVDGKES
`AGTTAGGA` has an E-score of -0.0362.
`TTAATGAA` has an E-score of 0.222.
For `AATCGTCG`, the E-score was -0.0435.
`ACGTTTTA` gave an E-score of -0.155.
For `GATGCTTA`, the E-score was -0.16.
`CGTTCCGA` gave an E-score of 0.0883.
`GAGAAGGA` has an E-score of -0.129.
For `CGGGCCTA`, the E-score was -0.164.
`TCGGAAAA` gave an E-score of 0.131.
The E-score of `GTTCGAAA` is reported as 0.125.
For `AACGAGAA`, the E-score was -0.0398.
With `CATCATGG` the E-score was -0.0133.
With `CCATGTCG` the E-score was 0.0349.
The E-score of `CGTAAGAC` is reported as -0.0716.
With `AATTTAGA` the E-score was 0.177.
With `AATGAGCG` the E-score was 0.0798.
With `CGTTAGCC` the E-score was -0.0614.
For `CACCAATC`, the E-score was -0.132.
For `GACAAGAA`, the E-score was -0.0452.

Sample 3 — technique: protein-binding microarray; form: double-stranded DNA, one strand shown; medium: in vitro; concentration: 250 nM; notes: 60-bp whole probe; together with: salmon DNA 0.4 mg/ml; relative to: random background probes; direction: higher = stronger binding; all sequences stand within: GCCTAGCAC … GTCTTGATTCGCTTGACGCTGCTG
Target: Interferon regulatory factor 7, full length, phosphomimetic (IRF7, Homo sapiens, UniProt Q92985, residues 1-503, S101K/S471D/S472D/S475D/S476D/S477D/S483D/S484D/S487D)
Chain of UniProt Q92985 (whole entry, unmodified, looked up): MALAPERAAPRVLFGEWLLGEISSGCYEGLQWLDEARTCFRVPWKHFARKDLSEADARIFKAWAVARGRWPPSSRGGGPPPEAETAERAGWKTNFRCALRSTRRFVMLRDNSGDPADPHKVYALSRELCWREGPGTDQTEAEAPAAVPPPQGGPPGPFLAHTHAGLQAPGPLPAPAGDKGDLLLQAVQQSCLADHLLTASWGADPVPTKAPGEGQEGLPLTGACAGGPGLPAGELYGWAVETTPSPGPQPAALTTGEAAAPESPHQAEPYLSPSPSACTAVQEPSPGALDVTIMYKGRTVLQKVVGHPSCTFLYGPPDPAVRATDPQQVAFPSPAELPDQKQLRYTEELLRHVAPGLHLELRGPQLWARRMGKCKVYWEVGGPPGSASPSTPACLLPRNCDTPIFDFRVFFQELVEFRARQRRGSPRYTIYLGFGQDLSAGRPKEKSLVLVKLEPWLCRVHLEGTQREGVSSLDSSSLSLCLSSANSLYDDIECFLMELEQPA
With `GGGCCGAGGCTGTGGCCACCGTGCTAG` the log fluorescence was -0.786 z-score.
The log fluorescence of `GCCGATCTCAGACTGGAGACGTGCTAG` is reported as -0.257 z-score.
For `TCATTTTCAATTTTTGCACTGTGCTAG`, the log fluorescence was 1.63 z-score.
For `GACGGGTCCGGTTTCGGGACGTGCTAG`, the log fluorescence was 4.42 z-score.
`TTATGACTGCTTATCCTTTAGTGCTAG` has a log fluorescence of -0.235 z-score.
The log fluorescence of `TCAATTATCCTTGTCCCACTGTGCTAG` is reported as 0.778 z-score.
For `GATGGTATCCTTTTCCTGACGTGCTAG`, the log fluorescence was 0.887 z-score.
With `TTTACTAGGAGTTTTCAGTCCGTGCTA` the log fluorescence was 0.0889 z-score.
`TTAGGTCTGCTTATCCTTTAGTGCTAG` has a log fluorescence of 0.045 z-score.
The log fluorescence of `TTGGGTTTCGGGTTTCGGTTAGTGCTA` is reported as 11.4 z-score.
`TTTCCTTTGCCTCTGAGGCTGTGCTAG` has a log fluorescence of 2.1 z-score.
`TTAGGACTGCTACTGCTCTAGTGCTAG` has a log fluorescence of -0.373 z-score.
The log fluorescence of `TTACATATCGGGTATCGATTAGTGCTA` is reported as 1.03 z-score.
With `TCAATTTTCCCTCCCTAACTGTGCTAG` the log fluorescence was 1.27 z-score.
For `GACGCACTGGGTTTCGGGACGTGCTAG`, the log fluorescence was 1.97 z-score.
The log fluorescence of `GACGGTCTACTACTGCTGACGTGCTAG` is reported as -0.381 z-score.
The log fluorescence of `TTAGATGTCAGTTTCGATTAGTGCTAG` is reported as 8.15 z-score.
For `TTGAGTTTTCCTTCATGTGCGTGCTAG`, the log fluorescence was 1.17 z-score.

Sample 4 — technique: RNA Bind-n-Seq; form: RNA; medium: in vitro; concentration: not given; relative to: input RNA pool; direction: higher = stronger binding
Target: RING finger protein unkempt homolog, zinc fingers 1-6, GST-SBP tag (UNK, Homo sapiens, UniProt Q9C0B0, residues 30-357)
Notes: RNA with constant flanks, human-mouse chimeric sites, ends assumed
All sequences stand within: GGGAGUUCUACAGUCCGACGAUC … CAACAGAGGAUUGAGCAUCA
Construct (chain): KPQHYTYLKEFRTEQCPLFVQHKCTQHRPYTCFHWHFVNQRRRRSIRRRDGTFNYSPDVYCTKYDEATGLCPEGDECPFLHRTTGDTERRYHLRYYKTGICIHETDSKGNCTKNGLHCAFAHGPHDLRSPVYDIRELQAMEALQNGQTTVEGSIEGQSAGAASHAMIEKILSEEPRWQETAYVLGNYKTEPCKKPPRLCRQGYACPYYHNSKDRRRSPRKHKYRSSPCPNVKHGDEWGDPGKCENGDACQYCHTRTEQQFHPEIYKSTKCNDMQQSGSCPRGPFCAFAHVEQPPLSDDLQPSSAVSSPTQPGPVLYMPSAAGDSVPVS
For `CUGGCACUCUAUCAGAUAUAUUAAUUUUUUAAUGUAGAUGUAAUUUUAAAAAUGAAUGGCUACUUUACGUGAUAGAUUAGGGUUUUACUAUAUAUGUGUGUGUAUAUAUAUAUAUAUAUA`, the bound/input enrichment was 11.6 ratio.
The bound/input enrichment of `UUUGUAUUUAUGCUAAGCACACGUGCUGGUGGUCUGGGCAUCAAUCUUGCAACUGCUGAUGUAGUCAUUUUGUAUGACUCAGAUUGGAAUCCCCAAGUUGAUCUUCAGGCUAUGGACCGU` is reported as 0.113 ratio.
`UAACCACAUCAAGAUGGUUGGGAAGCUGAAGCAGAACUUACUAUUGGCGUGUCUGGUGAUUAGUUCUGUGACCGUGUUUUACCUGGGCCAGCAUGCCAUGGAGUGCCAUCACCGAAUAGA` gave a bound/input enrichment of 0.239 ratio.
The bound/input enrichment of `GACCCACAGUGGUCUGAGGAGCAACUCAUUGCUGCAAAAUUCUGUUUUGCUGGACUUGUUAUAGGGCAGACUGAAGUGGACAUCAUGAGUCAUGCCACACAAGCUAUUUUUGAAAUUCUG` is reported as 0.182 ratio.
`CAGGGCAUCAUCUCUCGUGCUGUUAGACACCUGUUCAAGAGUAUUGAUGAGAAAAAGCACAUAGCAAUUAAAAAUGGGCUGCCCCCUCCUGAAUUCAAAGUGAAUGCCCAGUUCCUAGAG` has a bound/input enrichment of 0.788 ratio.
The bound/input enrichment of `CUUUUUAAGAAGAUAUGUGAUGGGAUCUUUUAUACCCCUCAGUACUUAAACCCUUCAGUGAUUAGCCUUUUGAAACAUAUGCUGCAGGUGGAUCCCAUGAAGAGGGCCACAAUCAAAGAU` is reported as 0.416 ratio.
With `UGACAAGGGCACUGCAGAGCCAUGCCUUUCCUUGACAUACAGAAAAAGCUGGGCAUCAACAUAGAUCGAUGGUUGACGUUCCUAAGCGCAGAACAGCCCUAUAAGAACGCCGCUCGGUGC` the bound/input enrichment was 0.0847 ratio.
With `AGAAUCUGUGACUGGCUUUGCUUGAUUGGUCAUUGAUAGCUUAACAAACAUGGAGAUAAGAUUAGAAAUCUUGACAUCAACAGGUAUUAAGCAGAAAAAACCAUGGCCACGUGUCUCCUG` the bound/input enrichment was 0.135 ratio.
With `AAAGCCCAAGUAUUUUGAAAAAAUUCAAACAGAUUUGACAAGGGUAGCCAGCUUGGAGUCUAGCAACUUGCCAAUGUGUUUACCAAUCUGGGGGCUUGUUUUUCUUUUCUUCUUUCAAAU` the bound/input enrichment was 0.369 ratio.
For `AGAAUCUGUGACUGGCUUUACUUAAUUGGUCAUUGAUAGCUUAACAAACAUGGAGAUAAGAUUAGAAAUCUUGACAUCAACAGGUAUUAAGCAGAAAAAACCAUGGCCACGUGUCUCCUG`, the bound/input enrichment was 0.125 ratio.
For `UAAAUUAGGGCUGCCGUUUUCUGUUUCUCCCUGGGCUGCGGAAAGCCAGAAGAUUUUAUCUAGCUUAUACAAGGCUGCUGGUGUUCCCUCCCUCCCGCCCUCUCUCUGUUUUUGGCUGCA`, the bound/input enrichment was 1.04 ratio.

A few entries again (sample 4):
With `AGAAUCUGUGACUGGCUUUGCUUGAUUGGUCAUUGAUAGCUUAACAAACAUGGAGAUAAGAUUAGAAAUCUUGACAUCAACAGGUAUUAAGCAGAAAAAACCAUGGCCACGUGUCUCCUG` the bound/input enrichment was 0.135 ratio.
`CAGGGCAUCAUCUCUCGUGCUGUUAGACACCUGUUCAAGAGUAUUGAUGAGAAAAAGCACAUAGCAAUUAAAAAUGGGCUGCCCCCUCCUGAAUUCAAAGUGAAUGCCCAGUUCCUAGAG` has a bound/input enrichment of 0.788 ratio.
For `AGAAUCUGUGACUGGCUUUACUUAAUUGGUCAUUGAUAGCUUAACAAACAUGGAGAUAAGAUUAGAAAUCUUGACAUCAACAGGUAUUAAGCAGAAAAAACCAUGGCCACGUGUCUCCUG`, the bound/input enrichment was 0.125 ratio.
For `UAAAUUAGGGCUGCCGUUUUCUGUUUCUCCCUGGGCUGCGGAAAGCCAGAAGAUUUUAUCUAGCUUAUACAAGGCUGCUGGUGUUCCCUCCCUCCCGCCCUCUCUCUGUUUUUGGCUGCA`, the bound/input enrichment was 1.04 ratio.
For `CUGGCACUCUAUCAGAUAUAUUAAUUUUUUAAUGUAGAUGUAAUUUUAAAAAUGAAUGGCUACUUUACGUGAUAGAUUAGGGUUUUACUAUAUAUGUGUGUGUAUAUAUAUAUAUAUAUA`, the bound/input enrichment was 11.6 ratio.
